# Measurements gathered from unrelated publications.
# Parts stem from different laboratories: compare values within a part only. Substitutions count along the parent as printed.

# Study 1
# Target: ABI1, truncated, D143A, DHFR fusion (Arabidopsis thaliana)
# Method: DHFR PCA, deep sequencing
# Sample: yeast
# Setting: methotrexate growth selection, single substitutions
# Added: (+)-ABA 2500 µM
# Relative to: wild-type fitted maximum
# Reading: higher = stronger binding
# Starting sequence: PYL1, truncated, DHFR fusion (Arabidopsis thaliana); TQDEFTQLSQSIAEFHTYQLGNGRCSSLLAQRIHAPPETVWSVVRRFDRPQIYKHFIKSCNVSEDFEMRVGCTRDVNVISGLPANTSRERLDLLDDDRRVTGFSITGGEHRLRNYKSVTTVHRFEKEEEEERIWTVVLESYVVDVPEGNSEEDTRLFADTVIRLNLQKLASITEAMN
Change,relative binding score [%]
W41F,75.9
N85F,93
A30Y,96
D48G,87.4
E127V,103
F157V,90.9
S27E,80.8
E174C,96.5
R132F,106
H110D,35.1
S140K,58.1
C72G,92.5
Q51F,101
S59I,87.2
T154L,81.8
G107D,106
T17K,102
I12C,91
E14W,76.9
V118E,27.9
L166Q,83.9
A175I,91.6
S80H,80.3
V137P,-15.4
S11P,100

# Study 2
# Target: CCNE1, cyclin fold, Cln2 fusion (human)
# Method: yeast growth competition, sequencing
# Sample: yeast
# Setting: weak parent motif
# Relative to: not given
# Reading: higher = stronger binding
# Starting sequence: REV3L docking peptide (human); PPVIIKYIIINRF
Change,normalised enrichment score
PAVIIKYIIINRF [P2A],0.654
PPVIIKYAIINRF [I8A],0.313
PPVIIKYIIINRA [F13A],0.361
PPVIIKYIAINRF [I9A],0.264
APVIIKYIIINRF [P1A],0.709
PPVIIKAIIINRF [Y7A],0.855
PPVAIKYIIINRF [I4A],0.433

# Study 3
# Target: Transcription factor SOX-2, HMG box (SOX2, Homo sapiens, UniProt P48431, residues 37-118)
# Chain of UniProt P48431 (37-118, looked up): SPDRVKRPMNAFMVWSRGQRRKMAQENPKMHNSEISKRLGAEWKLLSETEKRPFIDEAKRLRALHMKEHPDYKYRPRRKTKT
# Method: protein-binding microarray
# Form: hairpin DNA
# Sample: in vitro
# Concentration: not given
# Setting: whole hairpin DNA, median over replicate spots
# Relative to: not given
# Reading: higher = stronger binding
# Constant ends, left off below: GCAGGCCC … GGGCCTGCACACTCTTTCCCTACACGAC
Oligonucleotide,median fluorescence [a.u.]
ACTATGGGCCTCCTGGCCCATAGT (5mC at 10),2420
ACGATGGGCCTCCTGGCCCATCGT (5mC at 10 30),2460
ACCTTGGGCCTCCTGGCCCAAGGT,2370
ACACGGGGCCTCCTGGCCCCGTGT,2460
CGAATGGGCCTCCTGGCCCATTCG (5mC at 9 31),2490
ACAAGGGGCCTCCTGGCCCCTTGT (5mC at 28),2460
AGAATGGGCCTCCTGGCCCATTCT (5mC at 31),2540
ACCCTGGGCCTCCTGGCCCAGGGT (5mC at 11),2450
ACAATCCGCCTCCTGGCGGATTGT (5mC at 14),2790
CTAATGGGCCTCCTGGCCCATTAG (5mC at 9),2470
ACGATGGGCCTCCTGGCCCATCGT (5mC at 30),2370
ACAACCGGCCTCCTGGCCGGTTGT,2570
ACACCGGGCCTCCTGGCCCGGTGT,2520
ACGATGGGCCTCCTGGCCCATCGT,2350
ACAATGGGCCTCCTGGCCCATTGT (5mC at 27),3250
ACAATTGGCCTCCTGGCCAATTGT,4440

# Study 4
# Target: RING finger protein unkempt homolog, zinc fingers 1-6, SBP tag (UNK, Homo sapiens, UniProt Q9C0B0, residues 30-357)
# Chain of UniProt Q9C0B0 (30-357, looked up): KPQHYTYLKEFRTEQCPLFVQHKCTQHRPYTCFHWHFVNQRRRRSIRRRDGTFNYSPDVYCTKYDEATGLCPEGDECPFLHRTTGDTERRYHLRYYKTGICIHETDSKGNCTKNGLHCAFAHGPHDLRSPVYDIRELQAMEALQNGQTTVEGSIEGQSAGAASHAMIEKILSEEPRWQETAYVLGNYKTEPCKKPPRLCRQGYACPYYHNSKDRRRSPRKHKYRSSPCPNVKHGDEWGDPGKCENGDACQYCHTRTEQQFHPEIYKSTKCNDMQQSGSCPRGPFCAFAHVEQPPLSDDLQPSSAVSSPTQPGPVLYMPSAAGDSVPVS
# Method: RNA Bind-n-Seq
# Form: RNA
# Sample: in vitro
# Concentration: 100 nM
# Setting: RNA with constant flanks, vertebrate orthologous sites, ends assumed
# Relative to: input RNA pool
# Reading: higher = stronger binding
# Constant ends, left off below: GGGAGUUCUACAGUCCGACGAUC … CAACAGAGGAUUGAGCAUCA
Oligonucleotide,bound/input enrichment [ratio]
UAUGAUGAUUUUCAUUCUUUUUUUUUUUCCUGAUUUUCAAAGCUCCUCCCCCUUUUUUAGGCAUAUGUAGUAACAUUAGAGUUAAUUUGGACAACUUUGAUUCUAUAAAGAGAAAACAGC,0.836
GGGCAGCCAGUGGGGGAAUCCCCUACCUUGGCCAUGCGUCCCCUCCCUGCCACCUGCCCUUAGUUAUUUUUUUUUAACCACCACAUGAUUAUGGUCGGCGCUGCCUCCCCCGACCCACUC,2.6
UUCAGGCACAACUGACUGGUUCACAGCAUUCCUUACACAGUUAUCUAUCAAACGCAAGUGUGGUUAAUUUUCAGGAAACAAGCAGGCAGUCAUCUUUAUCCUGUAGCCCUAUUGGAGAUU,1.04
AUGUACUUAGAAAAGAAUUCUCCUUCAUCUUCCCAUGGUGAAAUUCUCUAGCAUUGUAUUUAGAUUCUGGAUUUUUAUAAUUCAUGCUUAAUGUAUUAGACAUUUUUAGCCCAUAAUUAA,1.3
AUCCCUCAGUGACAGUAUGCCUUCUGUAGCAGAUUCCCACUCUAGUCAUUUUUCUGAAUUUAGUUGUUCUGACCUAGAAAGCAUGAAAACUUCUUGUAGUCAUGGUUCCAGUGAUUAUCA,2.93
UUCAGGCACAACUGACUGGUUCACAGCAUUCCUUACAUAGCUAUCUAUCAAAUGCAAGUGUAGUUACUUUUCAGGAACCAAGCAGGCAGUCAUCUUUAUCCUGUAGCCCCGUCGGAGAGU,0.705
GCCAUGAAAAAGCAGCCCUUCUCCCAGCCCCCCUUUCGCUAGGAGAUACAAACGUUACCAUAGAAGAGCAAUUAAACUCAAUAAAUUUAUCUUUUCAGGAUGAUCCAGACUCCAGUACCA,0.975
UGUGUGGGUUGAGGGUAGAAGGGAGGGAAGGACAGGACAGUGCAGAGUCUUUGGAAAGGUAGGGAUAACAGUUCUAAGUGGGCCUUUAGCUUAGAAACUUUUAGAAGUAUCUGCUGUGGG,0.59

# Repeated from above (study 1):
Change,relative binding score [%]
C72G,92.5
Q51F,101
S59I,87.2
T154L,81.8
G107D,106
